Experimental data from different studies.
Several values in a cell are separate wells, animals, samples, runs or records. ± marks the error that the study gave.

SMILES = CCc1cc(Nc2nc(-c3ccc(-n4cnc(C)c4)c(F)c3)cs2)c(C)cc1C; test system = humans; conditions = oral, 25 to 300 mg, single dose, all cohorts; endpoint = tolerability; result = not toxic
SMILES = Cc1[nH]nc2c1N=C(c1ccccc1Cl)c1cnc(NCC(=O)O)cc1N2; test system = human, feces and urine; conditions = oral, 10 mg; how to read = baseline: dose; endpoint = excretion in feces and urine; result = 1.6%
SMILES = CC(C)C[C@@H](NC(=O)[C@H](NC(=O)[C@H]1CCCN1)[C@H](C)O)C(=O)N[C@H](Cc1c[nH]cn1)C(=O)N[C@@H](C(=O)N[C@H](Cc1c[nH]cn1)C(=O)N[C@H](CC(N)=O)C(=O)N[C@H](CCCNC(=N)N)C(=O)N[C@H](CCCNC(=N)N)C(=O)N[C@H](CCCNC(=N)N)C(=O)N[C@H](CCCNC(=N)N)C(=O)N[C@H](CCCNC(=N)N)C(N)=O)[C@H](C)O; test system = Beagle dog, CSF; conditions = oral, 20 mg/kg, last 2 time points; endpoint = apparent half-life; result = 190 ± 93 h
SMILES = C[C@H]1C[C@@H](Oc2cccc(F)n2)CCN1Cc1cnc(N[11C](C)=O)s1; test system = rat brain homogenate; conditions = at least 30 min, room temperature; endpoint = radioligand stability; result = 98.4%
SMILES = COC(=O)c1ccc2c(c1)NC(=O)/C2=C(\Nc1ccc2c(c1)CCN2C(=O)CN1CCOCC1)c1ccccc1; assay = metabolic stability; test system = beagle dog, liver microsomes; conditions = 10 µM, pH 7.4; endpoint = microsomal CLint; result = 120 µL/min/mg
SMILES = O=C([O-])CN1CCN(CC(=O)[O-])CCN(CC(=O)NCC2CCC(C(=O)NC(Cc3ccc4ccccc4c3)C(=O)NCCCCC(NC(=O)NC(CCC(=O)O)C(=O)O)C(=O)O)CC2)CCN(CC(=O)[O-])CC1.[44Sc+3] (centres unmarked); test system = 0.9 % NaCl; conditions = 24 h, 37 °C; endpoint = intact tracer; result = > 95%
SMILES = COc1ccc2cc(-c3ccc(-c4ccc(C)cn4)nc3)oc2c1; test system = aqueous HEPES buffer; conditions = pH 7.4, zinc-free ligand; endpoint = absorption maximum; result = 347 nm
SMILES = COc1cc(NC(C)=O)c2c(c1O)-c1c(OC)c(OC)cc3c1C(C2)N(C)CC3 (centres unmarked); test system = rat brain homogenate; conditions = 5 µg/mL, 4 h, room temperature, short-term storage; endpoint = remaining compound; result = 96.3 ± 3.3%
SMILES = Cc1ccccc1/N=N/c1ccc(/N=N/c2c(O)ccc3ccccc23)c(C)c1; test system = rat whole blood; conditions = 16.0 µg/L, freeze-thaw cycle 3; endpoint = freeze-thaw stability deviation; result = 0.4%
SMILES = Cn1cc2cc1C(=O)NC[C@H](N)CC(=O)Nc1cc(n(C)c1)C(=O)Nc1cc(n(C)c1)C(=O)Nc1cc(n(C)c1)C(=O)Nc1cc(n(C)c1)C(=O)NC[C@H](N)CC(=O)Nc1cn(C)c(n1)C(=O)Nc1cn(C)c(n1)C(=O)Nc1cc(n(C)c1)C(=O)N2; test system = C57BL/6 mice, plasma; conditions = intraperitoneal, 120 nmol/animal, 1.5 h; endpoint = injected dose in plasma; result = ~1.2%
SMILES = Cc1cc(NC(=O)[C@H](O)c2cc(F)cc(F)c2)ccc1-c1cnc(N)c(C(=O)NC(C)C)c1; test system = mouse, athymic nude Foxn1nu, female, plasma; conditions = oral, 30 mg/kg; endpoint = free Cmax; result = 186 nM
SMILES = CN1CCN(c2ccc(Nc3ncc(Cl)c(Nc4ccccc4P(C)(C)=O)n3)cc2Br)CC1; test system = Sprague-Dawley rat, male, plasma; conditions = oral, 25 mg/kg; endpoint = MRT(0-inf); result = 18 h and 10.5 h and 40.1 h
SMILES = COc1cc(OC)cc(C2=C3C(C)=C(I)C(C)=[N+]3[B-](F)(F)n3c(/C=C/c4cccs4)c(I)c(C)c32)c1; test system = dichloromethane; endpoint = absorption maximum; result = 599 nm
SMILES = F[P-](F)(F)(F)(F)F.O=C(CCC(=O)[c-]1cccc1)NCCN(CC(=O)Nc1ccc(C#CCN(Cc2ccccn2)Cc2ccccn2)cc1)C(=O)CCc1cn(Cc2ccccc2)nn1.[C-]#[O+].[C-]#[O+].[C-]#[O+].[C-]#[O+].[C-]#[O+].[C-]#[O+].[Mn+].[Re+]; test system = DMEM; conditions = 10 min, room temperature; endpoint = maximum solubility; result = 50 µg/mL
SMILES = C=C(c1ncc(C(=O)O)cn1)c1cc2c(cc1C)C(C)(C)CCC2(C)C; test system = Sprague-Dawley rat, male, plasma; conditions = oral, 100 mg/kg, 1 h, sesame oil vehicle; endpoint = LDL level; result = 36 ± 11.1 mg/dL
SMILES = C[Si](C)(C[C@@H](CN)CC(=O)O)C1CC1; assay = neuromuscular coordination; test system = Wistar rat male; conditions = oral, 300 mg/kg, 3 h; endpoint = performance time; result = 180 s
SMILES = NCC(=O)N1CCC[C@H]1C(=O)N1C[C@H](O)C[C@H]1C(=O)O; assay = potentiometric titration; test system = water; conditions = 40 °C, 0.15 mol/dm3 NaCl; endpoint = pKa1; result = < 2
SMILES = [11CH3]c1ccc2nc(C3CCC3)n(-c3ccc4[nH]ncc4c3)c2n1; assay = extrapolated from mouse biodistribution; test system = human female, red marrow; endpoint = absorbed dose; result = 2.7 µSv/MBq
SMILES = COc1cc(N(C)CCN(C)C)c(NC(=O)CCSCC(NC(C)=O)C(=O)O)cc1Nc1nccc(-c2cn(C3CC3)c3ccccc23)n1 (centres unmarked); test system = human, pooled urine; conditions = 0 to 48 h; how to read = baseline: dose; endpoint = excretion in urine; result = 0.01%
SMILES = CC12CC(c3ccc(S(C)(=O)=O)cc3)C3=C4CCC(=O)C=C4CCC3C1CCC2(O)C(F)(F)C(F)(F)F (centres unmarked); test system = human, plasma; conditions = oral, 4 mg, single dose; endpoint = Tmax; result = 2.5 h
SMILES = Cc1ccc(OCC(=O)O)cc1; test system = Sprague-Dawley rat, female, plasma; conditions = oral, 30 mg/kg/day of parent drug, day 1, 90-day repeated dosing; endpoint = Cmax; result = 4070 ± 922 ng/mL
SMILES = N=C(N)NCCC[C@@H]1NC(=O)[C@H](Cc2c[nH]c3ccccc23)NC(=O)[C@@H](CC2CCCCC2)NC(=O)[C@@H]2CCCN2C(=O)[C@@H](NC(=O)CCc2ccccc2)CCCNC1=O; test system = C57BL/6J mice, brain; conditions = subcutaneous, 1 mg/kg, two-compartment model; endpoint = apparent total clearance (CL/F); result = 1.66 ng/(min·ng/g)
SMILES = CC(C)NC(=O)N1CCC=C(c2cc3c(Nc4cc5ncsc5cc4F)ncnc3s2)C1; test system = human liver microsomes; conditions = 1 µM; endpoint = intrinsic clearance; result = < 12 mL/min/g protein
SMILES = Cn1c(=O)oc2ccc(-c3ccc(CC(C#N)NC(=O)C4CNCCCO4)c(F)c3)cc21 (centres unmarked); test system = human; conditions = oral, 40 mg once daily, TEAE, multiple ascending dose; endpoint = CPK increased incidence; result = 11.1%
SMILES = C#CCOc1ccc(/C=C2\SC(=O)N(CC(=O)NCc3ccccc3)C2=O)cc1; assay = inverse Kirkwood-Buff integrals; test system = binary solvent mixture; conditions = 298.15 K, mole fraction x1 0.05; endpoint = Kirkwood-Buff integral G2,3; result = -656 cm³/mol
SMILES = CN(C)c1ccc(-c2nc3ccc(OCCCCCN4CCN5CCN(CC4)CC(=O)[O][Al]([18F])[O]C(=O)C5)cc3s2)cc1; test system = ICR mouse, heart; conditions = intravenous, 60 min; endpoint = tissue uptake; result = 0.62 ± 0.26 %ID/g
SMILES = CC(C)(C)ONc1nc(Nc2ccnc(C(F)(F)F)c2)nc(-c2cccc(C(F)(F)F)n2)n1; test system = female Balb/cA nude mice xenograft, plasma; conditions = oral, 18.05 mg/kg; endpoint = AUC(0-24 h); result = 25100 ng·h/mL
SMILES = CCCC(CCC)NC(=O)c1ccc(OC2OC(C(=O)O)C(O)C(O)C2O)c(OC)c1 (centres unmarked); test system = male Sprague-Dawley rats, plasma; conditions = oral, 200 mg/kg of parent drug; how to read = baseline: 200 over 20 mg/kg dose; endpoint = AUC(0-last) ratio; result = 3.97
SMILES = CC(C)[C@H](NC(=O)CNC(=O)[C@H](CCC(N)=O)NC(=O)[C@H](C)N)C(=O)O; assay = LC-MS/MS; test system = human, male, plasma; conditions = intravenous, 30 mg/kg three times daily, day 2, first dose, 10 min infusion, geometric mean; endpoint = volume of distribution; result = 19 L/kg
SMILES = CN1CCC[C@]1(C)/C=C/S(=O)(=O)NC(=O)Nc1c2c(cc3c1CCC3)CCC2; test system = human, plasma; conditions = oral, 25 mg, single dose; endpoint = Tmax; result = 1.5 h
SMILES = COCC1CN(C2CCN(c3cc(OC)c(Nc4ncc(Br)c(Nc5ccc6c(c5P(C)(C)=O)OCCO6)n4)cc3C)CC2)C1; test system = human patients; conditions = oral, dose not given; endpoint = grade ≥3 treatment-related pneumonia; result = 3.7%
SMILES = CCC1CNC(CC)CN(C(C(=O)[O-])c2ccc(C(=O)[O-])cc2)C(CC)CN(CC(=O)[O-])C(CC)CN1.[Mn+2] (centres unmarked); assay = ICP-MS; test system = BALB/c mice, kidney; conditions = intravenous, 0.05 mmol/kg, 5 min; endpoint = Mn content; result = 9.61 µg/g

A few entries again:
SMILES = Cc1ccccc1/N=N/c1ccc(/N=N/c2c(O)ccc3ccccc23)c(C)c1; test system = rat whole blood; conditions = 16.0 µg/L, freeze-thaw cycle 3; endpoint = freeze-thaw stability deviation; result = 0.4%
SMILES = COCC1CN(C2CCN(c3cc(OC)c(Nc4ncc(Br)c(Nc5ccc6c(c5P(C)(C)=O)OCCO6)n4)cc3C)CC2)C1; test system = human patients; conditions = oral, dose not given; endpoint = grade ≥3 treatment-related pneumonia; result = 3.7%
SMILES = Cc1ccc(OCC(=O)O)cc1; test system = Sprague-Dawley rat, female, plasma; conditions = oral, 30 mg/kg/day of parent drug, day 1, 90-day repeated dosing; endpoint = Cmax; result = 4070 ± 922 ng/mL
